Results of several laboratories.
Every numbered part comes from another study and shows a few of its results, in no order.
Sequence of UniProt Q9UHD2 (whole entry, looked up): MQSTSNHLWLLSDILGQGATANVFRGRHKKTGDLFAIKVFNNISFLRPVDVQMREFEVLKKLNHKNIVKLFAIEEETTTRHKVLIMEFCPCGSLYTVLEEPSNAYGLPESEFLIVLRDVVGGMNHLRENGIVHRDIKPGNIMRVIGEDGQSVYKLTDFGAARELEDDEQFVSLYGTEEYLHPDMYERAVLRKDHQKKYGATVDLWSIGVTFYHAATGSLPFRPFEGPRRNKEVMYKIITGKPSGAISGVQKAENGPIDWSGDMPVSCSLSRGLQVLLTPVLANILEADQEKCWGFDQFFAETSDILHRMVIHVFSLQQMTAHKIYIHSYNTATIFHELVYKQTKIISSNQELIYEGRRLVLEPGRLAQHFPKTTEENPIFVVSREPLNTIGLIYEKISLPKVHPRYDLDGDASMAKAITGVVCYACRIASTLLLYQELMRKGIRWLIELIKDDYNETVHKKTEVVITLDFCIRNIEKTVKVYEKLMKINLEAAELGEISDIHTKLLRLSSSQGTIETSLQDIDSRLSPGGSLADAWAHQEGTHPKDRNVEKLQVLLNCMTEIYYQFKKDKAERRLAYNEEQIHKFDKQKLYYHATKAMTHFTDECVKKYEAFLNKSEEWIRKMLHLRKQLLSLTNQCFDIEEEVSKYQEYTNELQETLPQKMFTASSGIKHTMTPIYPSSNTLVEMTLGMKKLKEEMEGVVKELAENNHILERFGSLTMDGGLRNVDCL
Sequence of UniProt Q02763 (whole entry, looked up): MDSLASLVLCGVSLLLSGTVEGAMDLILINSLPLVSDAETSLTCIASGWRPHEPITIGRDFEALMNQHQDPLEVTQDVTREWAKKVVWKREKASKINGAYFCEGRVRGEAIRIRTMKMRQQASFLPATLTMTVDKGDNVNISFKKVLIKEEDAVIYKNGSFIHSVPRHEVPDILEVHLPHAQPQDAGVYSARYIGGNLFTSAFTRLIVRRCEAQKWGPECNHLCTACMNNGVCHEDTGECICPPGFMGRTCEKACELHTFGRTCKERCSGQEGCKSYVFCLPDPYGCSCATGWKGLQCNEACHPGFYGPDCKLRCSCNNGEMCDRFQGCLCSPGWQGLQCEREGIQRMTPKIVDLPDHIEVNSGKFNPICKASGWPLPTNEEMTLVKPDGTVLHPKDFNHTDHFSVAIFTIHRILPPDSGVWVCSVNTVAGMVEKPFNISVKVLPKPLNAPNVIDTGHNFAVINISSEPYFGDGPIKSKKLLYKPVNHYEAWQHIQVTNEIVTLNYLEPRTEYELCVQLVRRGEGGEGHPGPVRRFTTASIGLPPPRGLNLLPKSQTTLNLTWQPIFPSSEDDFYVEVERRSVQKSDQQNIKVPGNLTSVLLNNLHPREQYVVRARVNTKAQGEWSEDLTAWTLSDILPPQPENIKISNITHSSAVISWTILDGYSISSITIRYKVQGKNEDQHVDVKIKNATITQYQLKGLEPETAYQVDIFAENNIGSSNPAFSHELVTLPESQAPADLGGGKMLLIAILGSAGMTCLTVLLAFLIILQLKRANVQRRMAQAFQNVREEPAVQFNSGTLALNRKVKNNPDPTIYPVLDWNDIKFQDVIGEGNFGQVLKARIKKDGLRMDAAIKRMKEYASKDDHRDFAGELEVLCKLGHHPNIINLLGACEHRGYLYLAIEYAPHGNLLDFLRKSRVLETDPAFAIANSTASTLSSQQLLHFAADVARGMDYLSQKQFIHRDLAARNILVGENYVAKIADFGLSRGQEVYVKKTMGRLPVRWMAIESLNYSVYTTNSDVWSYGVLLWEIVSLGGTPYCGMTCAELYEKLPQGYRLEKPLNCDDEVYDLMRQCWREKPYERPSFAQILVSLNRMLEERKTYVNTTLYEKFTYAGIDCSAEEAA
Sequence of UniProt P29320 (whole entry, looked up): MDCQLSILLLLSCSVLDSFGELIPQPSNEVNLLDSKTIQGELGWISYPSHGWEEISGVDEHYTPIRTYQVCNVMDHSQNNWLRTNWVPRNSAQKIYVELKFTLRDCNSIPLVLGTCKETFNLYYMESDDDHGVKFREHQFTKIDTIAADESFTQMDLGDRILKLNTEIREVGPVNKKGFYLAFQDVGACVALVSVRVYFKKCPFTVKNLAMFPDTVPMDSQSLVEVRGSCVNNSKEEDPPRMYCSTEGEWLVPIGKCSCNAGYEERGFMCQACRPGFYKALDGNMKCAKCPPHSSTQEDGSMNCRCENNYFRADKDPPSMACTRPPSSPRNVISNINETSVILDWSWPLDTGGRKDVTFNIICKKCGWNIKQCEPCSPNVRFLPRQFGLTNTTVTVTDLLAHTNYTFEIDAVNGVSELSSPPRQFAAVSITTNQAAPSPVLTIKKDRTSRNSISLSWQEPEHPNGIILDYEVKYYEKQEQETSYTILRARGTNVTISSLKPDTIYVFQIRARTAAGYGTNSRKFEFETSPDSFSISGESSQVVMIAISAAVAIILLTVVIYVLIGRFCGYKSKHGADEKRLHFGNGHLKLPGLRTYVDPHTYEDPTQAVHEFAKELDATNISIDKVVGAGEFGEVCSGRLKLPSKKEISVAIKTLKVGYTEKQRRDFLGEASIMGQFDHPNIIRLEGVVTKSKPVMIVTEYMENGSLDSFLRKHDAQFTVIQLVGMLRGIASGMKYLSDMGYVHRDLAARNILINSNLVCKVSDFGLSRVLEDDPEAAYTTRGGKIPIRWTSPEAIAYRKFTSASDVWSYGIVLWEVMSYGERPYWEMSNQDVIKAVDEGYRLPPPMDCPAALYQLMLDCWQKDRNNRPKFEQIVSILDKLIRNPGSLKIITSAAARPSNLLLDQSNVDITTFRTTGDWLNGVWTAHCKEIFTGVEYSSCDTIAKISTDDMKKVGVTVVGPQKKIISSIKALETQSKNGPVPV
Sequence of UniProt P22607 (whole entry, looked up): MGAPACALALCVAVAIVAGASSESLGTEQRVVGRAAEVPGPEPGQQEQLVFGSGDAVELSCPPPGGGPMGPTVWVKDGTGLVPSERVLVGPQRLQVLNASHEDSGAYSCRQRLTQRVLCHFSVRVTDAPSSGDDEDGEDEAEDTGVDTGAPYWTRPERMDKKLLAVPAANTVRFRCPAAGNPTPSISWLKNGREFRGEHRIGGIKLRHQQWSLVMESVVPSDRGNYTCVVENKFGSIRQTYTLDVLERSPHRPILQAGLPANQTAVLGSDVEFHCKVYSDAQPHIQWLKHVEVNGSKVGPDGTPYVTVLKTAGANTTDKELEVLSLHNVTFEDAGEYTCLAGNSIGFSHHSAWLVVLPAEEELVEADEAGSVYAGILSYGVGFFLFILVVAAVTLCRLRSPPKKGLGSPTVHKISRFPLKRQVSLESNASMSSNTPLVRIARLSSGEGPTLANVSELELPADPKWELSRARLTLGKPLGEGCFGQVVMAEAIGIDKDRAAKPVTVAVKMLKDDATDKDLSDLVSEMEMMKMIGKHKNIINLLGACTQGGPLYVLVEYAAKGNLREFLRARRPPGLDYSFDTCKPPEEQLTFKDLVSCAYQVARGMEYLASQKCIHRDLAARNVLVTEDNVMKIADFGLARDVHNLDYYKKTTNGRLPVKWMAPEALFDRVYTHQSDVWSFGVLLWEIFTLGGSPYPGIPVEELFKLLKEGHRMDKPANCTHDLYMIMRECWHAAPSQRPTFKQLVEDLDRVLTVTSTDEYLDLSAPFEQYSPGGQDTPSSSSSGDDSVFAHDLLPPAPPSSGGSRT
Sequence of UniProt P30291 (whole entry, looked up): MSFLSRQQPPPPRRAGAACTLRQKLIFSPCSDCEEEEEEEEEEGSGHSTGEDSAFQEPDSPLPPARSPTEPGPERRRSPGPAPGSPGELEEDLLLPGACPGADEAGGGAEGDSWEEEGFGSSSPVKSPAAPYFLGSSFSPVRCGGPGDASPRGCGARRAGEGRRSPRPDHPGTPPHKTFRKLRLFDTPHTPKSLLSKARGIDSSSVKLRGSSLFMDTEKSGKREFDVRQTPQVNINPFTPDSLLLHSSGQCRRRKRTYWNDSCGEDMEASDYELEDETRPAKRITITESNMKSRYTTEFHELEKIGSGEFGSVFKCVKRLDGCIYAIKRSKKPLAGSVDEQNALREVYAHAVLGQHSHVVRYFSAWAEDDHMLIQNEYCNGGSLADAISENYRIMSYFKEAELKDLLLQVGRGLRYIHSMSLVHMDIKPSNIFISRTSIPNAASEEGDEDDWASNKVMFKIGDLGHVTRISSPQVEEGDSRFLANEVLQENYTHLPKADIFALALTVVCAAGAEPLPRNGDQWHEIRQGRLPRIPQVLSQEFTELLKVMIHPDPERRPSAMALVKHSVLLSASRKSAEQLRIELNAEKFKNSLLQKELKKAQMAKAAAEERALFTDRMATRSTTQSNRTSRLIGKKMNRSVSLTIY
Sequence of UniProt P27361 (whole entry, looked up): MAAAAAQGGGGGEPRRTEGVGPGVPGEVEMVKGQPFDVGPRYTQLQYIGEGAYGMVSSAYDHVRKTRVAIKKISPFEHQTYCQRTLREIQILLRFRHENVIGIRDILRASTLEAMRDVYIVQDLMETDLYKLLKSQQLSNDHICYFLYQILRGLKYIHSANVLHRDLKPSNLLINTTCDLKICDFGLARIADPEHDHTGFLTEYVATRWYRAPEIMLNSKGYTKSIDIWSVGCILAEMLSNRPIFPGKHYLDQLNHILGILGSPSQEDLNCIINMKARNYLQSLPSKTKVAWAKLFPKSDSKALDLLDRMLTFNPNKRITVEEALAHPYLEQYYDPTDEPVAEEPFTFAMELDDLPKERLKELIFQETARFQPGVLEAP

Set 1
SMILES: O=C(O)[C@H]1[C@H](Cn2nnc3ccccc3c2=O)CC[C@@H]1C(=O)c1ccc(OCCC2CCOCC2)cc1
Effect on: cell-free assay
Method: competition with immobilised ligand
Concentration: 1 µM
| target | remaining binding |
| --- | --- |
| SNRK (Homo sapiens, UniProt Q9NRH2) | 95% |
| AKT3 (Homo sapiens, UniProt Q9Y243) | 73% |
| STK26 (Homo sapiens, UniProt Q9P289) | 87% |
| EGFR (Homo sapiens, UniProt P00533, L861Q) | 53% |

Set 2
Structure (SMILES): COc1ccc2c(c1)c(C1=C(c3c[nH]c4ccccc34)C(=O)NC1=O)cn2CCCN(C)C
Effect on: enzyme activity
Mode: inhibitor
Concentration: 0.5 µM
Reference: control
| target | remaining activity [%] |
| --- | --- |
| ACVR1B (Homo sapiens, UniProt P36896) | 111 |
| ULK2 (Homo sapiens, UniProt Q8IYT8) | 96.1 |
| JAK3 (Homo sapiens, UniProt P52333) | 138 |
| CSNK1G2 (Homo sapiens, UniProt P78368) | 82.2 |
| TEK (Homo sapiens, UniProt Q02763) | 102 |
| MAP2K2 (Homo sapiens, UniProt P36507) | 103 |
| MAPK3 (Homo sapiens, UniProt P27361) | 93 |
| WEE1 (Homo sapiens, UniProt P30291) | 85.1 |
| MAP3K14 (Homo sapiens, UniProt Q99558) | 79.2 |
| MERTK (Homo sapiens, UniProt Q12866) | 84 |
| FGFR3 (Homo sapiens, UniProt P22607) | 87.5 |
| TBK1 (Homo sapiens, UniProt Q9UHD2) | 90.7 |
| EPHA3 (Homo sapiens, UniProt P29320) | 94.1 |

Set 3
Target: Histone acetyltransferase KAT6A, winged helix 2, GST fusion (KAT6A, Homo sapiens, UniProt Q92794, residues 85-181)
Method: protein binding microarray
Form: double-stranded DNA, one strand shown
Sample: in vitro
Concentration: not given
Setting: 8-mer, flanks averaged, mean of 2 arrays, mostly near background
Reference: not given
Reading: higher = stronger binding
Target sequence (chain): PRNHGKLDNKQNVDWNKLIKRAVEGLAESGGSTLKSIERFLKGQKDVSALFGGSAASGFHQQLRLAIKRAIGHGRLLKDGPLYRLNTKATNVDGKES
| Strand | E-score |
| --- | --- |
| ACTAAGGC | -0.177 |
| GGTTTCTA | 0.0113 |
| CAGCACAA | 0.161 |
| CCGTCAAA | -0.0977 |
| CAAATCCA | 0.04 |
| ACGCTAAA | 0.00297 |
| ATTTGGTA | 0.0305 |
| TACGGACA | -0.0709 |

Further values, each from its own experiment
Method: cross-linking MS
| Substance | partner | sample | setting | with | endpoint | result |
| --- | --- | --- | --- | --- | --- | --- |
| MTA1 (Homo sapiens, UniProt Q13330) | HDAC2 (Homo sapiens, UniProt Q92769) |  | hits only |  | interaction screen | cross-linked |
| SIN3A (Homo sapiens, UniProt Q96ST3) | ING1 (Homo sapiens, UniProt Q9UK53) |  | hits only |  | interaction screen | cross-linked |
| KRT18 (Homo sapiens, UniProt P05783) | KRT8 (Homo sapiens, UniProt P05787) |  | hits only |  | interaction screen | cross-linked |
| NDUFS7 (Homo sapiens, UniProt O75251) | COX6C (Homo sapiens, UniProt P09669) | cell fractions |  | DMTMM | cross-linked residues | E61 to M1 |

Some of these lines once more (set 3):
| Strand | E-score |
| --- | --- |
| ACGCTAAA | 0.00297 |
| ATTTGGTA | 0.0305 |
| TACGGACA | -0.0709 |
